Measured values collected from several papers.
Protocols differ between the studies behind these lines. Several values in a cell are separate wells, animals, samples, runs or records.

`O=C(c1ccc([C@H]2[C@@H](F)[C@@H](F)C[C@@H](F)[C@H]2F)cc1)N1CCC(F)CC1` has a hepatic clearance of 3.9 mL/min/kg (liver microsome stability; human liver microsomes; 1 µM, without NADPH).
For `CN1CCCNC(=O)c2cccc(c2)C(=O)NCCCN(C)CCCNc2cccc3c2C(=O)c2cccc(c2C3=O)NCCC1`, “log2 fold change” read -0.905 (SAS; RNA-Seq, measured: WDR61 mRNA; 1 µM, 6 h; reference: untreated cells).
For `COC1CCN(C(=O)/C=C/c2nn(Cc3cccc(C(F)(F)F)c3)c3nc(N4CCCCC4)ncc23)CC1`, the EC50 was > 30000 nM (FLO-1; cell growth or viability, resazurin; 5 days).
For `CCN(CC)CC(=O)Nc1cccc(-n2cc(-c3ccc4ccc(-c5cn(-c6cccc(NC(=O)CN(CC)CC)c6)nn5)cc4c3)nn2)c1`, the fold regulation was 1.02 (RCC4; PCR angiogenesis array, measured: IFNG; 5 x IC50, 2 h, normoxia; reference: untreated).
`C=CCc1c(O)cc2c(c1O)C(=O)CC(c1ccc(O)cc1)O2` (stereo not drawn) has an inhibition of 4.73% (HeLa; cell growth or viability, MTT; 25 µM, 48 h).
With `CNS(=O)(=O)Nc1nccc(Cc2c(C)c3ccc(Oc4ncccc4F)cc3oc2=O)c1F` the IC50 was 24.3 nM (NUGC-3; cell viability; 7 days).
`O=S(=O)(N[C@H]1CCO[C@@H](C2c3ccccc3CCc3ccccc32)C1)c1ccc(OC(F)(F)F)cc1` — result for protein level: “decreased” (D425; immunoblot, measured: CCR2; concentration not given).
`Cc1cc(Cl)cc(-c2ccnc3cc(CN4C(=O)C5C(C4=O)C5(C)C)sc23)c1C[C@@H]1CNCCO1` (stereo partly drawn) — result for “late apoptotic cells”: 8.03% and 8.41% and 4.46% (CHP-212 resistant; annexin V/PI flow cytometry; 0.3 µM, 48 h).
With `Cc1ccccc1S(=O)(=O)NC12CCCC(C)(CCC3C1CC3(C)C)C2` (stereo not drawn) the inhibition was 87.2% (HT-29; cell growth or viability, CCK-8; 50 µM).
`COc1ccc(CNC[C@@](O)(COCc2ccc(OC)cc2)[C@@H]2CC[C@@H](C)C[C@H]2OCc2ccc(OC)cc2)cc1` gave an inhibition of 97.3% (A2780; cell growth or viability, MTT; 10 µM, 72 h).
With `CC(C)c1ccc(N(C)c2ccc3c(c2)OCC[C@H]3CNc2cnccc2C(=O)O)cc1` the IC50 was 11 nM (A101D; cell growth or viability, ATP luminescence; 7 days).
`COc1ccc(-c2ccc([C@H]3[C@@H](F)[C@@H](F)C[C@@H](F)[C@H]3F)cc2)cc1OC` has a hepatic clearance of 11 mL/min/kg (hepatocyte stability; cryopreserved human hepatocytes; 1 µM).
`Cc1ncsc1-c1ccc(C(C)NC(=O)C2CC(O)CN2C(=O)C(NC(=O)CCCCCCCCCCN2CCCC(Nc3ncc(Cl)c(Nc4ccccc4S(=O)(=O)C(C)C)n3)C2)C(C)(C)C)cc1` (stereo not drawn): “log2 fold change” -1.64 (22Rv1; RNA-seq, measured: PHOSPHO2 mRNA; concentration not given; reference: DMSO).
For `C=CC(=O)N1CCCC(n2c(=O)c3ncccc3n(Cc3ccc(Oc4ccccc4)cc3)c2=O)C1` (stereo not drawn), “early apoptotic cells” read 2.82% (OCI-LY19; annexin V/PI flow cytometry; 100 nM, 72 h).
`CC(=O)N[C@@H](CC(=O)O)C(=O)N[C@@H](CCC(=O)O)C(=O)N[C@@H](CC(C)C)C(=O)N[C@@H](CC(=O)O)C(=O)COC(=O)c1c(C)cccc1C` has a cell lysis of 73.1% and 66.6% (THP-1 cells, LPS-primed; pyroptosis, LDH release; 25 µM, LPS 1 µg/mL, 4 h, with: nigericin 5 µM, 2 h).
`CC12CCCC(n3cc(C(=O)N4CCC(N)CC4)nn3)(C1)C1CC(C)(C)C1CC2` (stereo not drawn) gave an inhibition of 76.6% (HT-29; cell growth or viability, CCK-8; 10 µM).
`O=C(C[Se]C(=O)c1cc2ccccc2[nH]1)Nc1cccc(C(F)(F)F)c1` has a TGI of 2700 nM (NCI60 NSCLC subpanel mean; cell growth).
`CCN(C(=O)c1cc(F)ccc1Oc1nncnc1N1CCC2(C1)CN([C@H](CCCN(C)CCOC)C(C)C)C2)C(C)C` gave a GI50 of > 10000 nM (JEG-3; cell growth or viability; 7 days).
